Published values gathered from unrelated publications.
Compare with care: the assays were run in different laboratories. “And” joins repeats or separate records; there may be more than shown. Numbers after ± are the reported error.

SMILES | test | test system | setting | scale | quantity | result
CO[C@H]1C[C@@H]2CC[C@@H](C)[C@@](O)(O2)C(=O)C(=O)N2CCCC[C@H]2C(=O)O[C@H]([C@H](C)C[C@@H]2CC[C@@H](OC(=O)NCCOCCOCCOCCOCCOCCOCCOCCOCCC(=O)N3CCc4cc(Cn5nc(-c6ccc7oc(N)nc7c6)c6c(N)ncnc65)ccc4C3)[C@H](OC)C2)C[C@@H](O)[C@H](C)/C=C(\C)[C@@H](O)[C@@H](OC)C(=O)[C@H](C)C[C@H](C)/C=C/C=C/C=C/1C | – | patients with advanced solid tumours | intravenous, dose not given, any grade | – | incidence of Constipation TEAE | 19.3%
CCCC(CCC)NC(=O)c1ccc2c(c1)OCO2 | – | Swiss albino CD-1 mice, male, bone marrow | intraperitoneal, 700 mg/kg, 36 h | – | PCE/NCE ratio | 0.9
CC(C)[C@@H]1NC(=O)CNC(=O)[C@H](CC(N)=O)NC(=O)[C@H](CCCNC(=N)N)NC(=O)[C@H](Cc2ccc(O)cc2)NC(=O)[C@H](C(C)C)NC(=O)[C@@H](NC(=O)[C@@H](NC(=O)[C@H](CC(N)=O)NC(=O)[C@H](Cc2c[nH]c3ccccc23)NC(=O)[C@H](C)NC(=O)[C@H](Cc2ccccc2)NC(=O)CN)C(C)C)CSSC[C@@H](C(=O)N[C@@H](Cc2cnc[nH]2)C(=O)N[C@@H](CCCNC(=N)N)C(=O)N[C@@H](CCCNC(=N)N)C(=O)N[C@@H](C)C(=O)N[C@@H](CC(N)=O)C(N)=O)NC(=O)[C@H](C(C)C)NC(=O)[C@H](CCCNC(=N)N)NC1=O | – | ICR mice, serum | intraperitoneal, 10 mg/kg, day 5 | – | calcium | 1.38 ± 0.03 mmol/L
O=C1Nc2cc3[nH]nc(-c4ccncc4)c3cc2CN1Cc1ccccc1 | CTCAE v4.03 | human, relapsed or refractory advanced solid tumours | intravenous, 7.2 mg/kg, pooled schedules | – | patients with nausea | 20%
Clc1ccc(-c2ccccc2)cc1 | – | Sprague-Dawley rats, female, serum | inhalation, 23 µg/rat, 2 h after exposure | – | albumin | 3 ± 0.7 g/dL
O=C(Nc1ccccc1)C1CCN(C(=O)Oc2cccnc2)CC1 | adverse event reporting | healthy women | oral, 20 mg, 7 days | – | subjects with sleep disorder | 7.1%
O=C(O)Cc1ccccc1Nc1c(Cl)cccc1Cl | – | human liver microsomes 0.5 mg/mL | 5 µM, 24 h | – | fu,mic | 1
CCCCCOc1ccc(-c2ccc(-c3ccc(C(=O)N[C@H]4C[C@@H](O)[C@@H](OCC[N+](C)(C)C)NC(=O)[C@@H]5[C@@H](O)[C@@H](C)CN5C(=O)[C@H]([C@@H](C)O)NC(=O)[C@H]([C@H](O)[C@@H](O)c5ccc(O)cc5)NC(=O)[C@@H]5C[C@@H](O)CN5C(=O)[C@H]([C@@H](C)O)NC4=O)cc3)cc2)cc1 | – | adult ICU patients, mITT, serum | dose not given, EOT | – | bilirubin | 13.3 µmol/L
c1cc2ccc3cccc4ccc(c1)c2c34 | metabolism | pooled human liver microsomes | pH 7.4 | – | Km | 0.14 µM
CC(C)c1nc(N(C)S(C)(=O)=O)nc(-c2ccc(F)cc2)c1/C=C/[C@@H](O)C[C@@H](O)CC(=O)O | – | healthy human subjects | oral, dose not given, study CL-0537 safety set | – | incidence of Dysmenorrhea | 3.6%
COc1ncccc1-c1cnn2ccc(N3CCN(C(=O)OC(C)C)CC3)nc12 | – | mouse nerve ligation model, plasma | oral, 10 mg/kg, 120 min after last dose, repeat dosing day 1 | – | drug concentration | 2200 nM
COc1cc(C(=O)NC2CCN(C)CC2)c(F)cc1Nc1ncc(C(F)(F)F)c(Oc2cccc3c2C(=O)N(C)C3)n1 | – | human patients, urine | oral, 200 mg single dose, geometric mean | relative to: dose | fraction excreted in urine (0-48 h) | 9.08%
COc1ccc(C[C@@H]2NC(=O)[C@H]([C@@H](C)O)NC(=O)[C@@H]3[C@@H]4CCN3C(=O)[C@@H]3Cc5cn(c6ccc(F)cc56)CCCCCCN(Cc5ccc(cc5)CCNC(=O)[C@]5(C)CCCN5C2=O)C(=O)CCC(=O)N[C@@H](C)C(=O)N[C@H](CNC(=O)CCCCC[N+](C)(C)C)C(=O)N[C@@H](Cc2cccc(c2)CNC(=O)CO4)C(=O)N3)cc1 | measured: Regurgitation | humans | concentration not given, Study-001 | – | participants with adverse event | 0%
O=C1NC(=O)C(c2ccccc2)(c2ccccc2)N1 | PAMPA | pre-coated trilayer membrane | 200 µM, 5 h, pH 7.4, donor plate, PBS | – | donor concentration | 149.7 ± 1.4 µM
CC(C)(C)c1cc(-n2nc3ccccc3n2)c(O)c(C(C)(C)C)c1 | exposure assessment | human, age 21-60 years, sunscreen | – | – | dermal uptake | 1.52 ng/kg body weight/day
COc1cc2c(Oc3ccc4[nH]c(C)cc4c3F)ccnc2cc1OCC1(N)CC1 | – | paediatric recurrent refractory sarcoma | 10 mg | – | grade 1 or 2 gingival bleeding | 25%
CC1(C)C(C=C(Cl)Cl)C1C(=O)OC(C#N)c1ccc(F)c(Oc2ccccc2)c1 (stereo not shown) | measured: CYP3A5 | human, age 6 months, recombinant human CYP3A5 | 0.1 µM | – | enzyme contribution to clearance | 0.21%

SMILES | test | test system | setting | scale | quantity | result
COc1ccc(CCC2CCCC(CCc3ccc(OC)cc3)N2C[C@@H](O)CO)cc1.Cl (stereo in doubt) | – | rabbit Purkinje fibres | 0.03 µM, cycle length 1 s | relative to: baseline | action potential amplitude change | 1.2 ± 2.4 mV
C1=Cc2nc1cc1ccc([n-]1)c(-c1ccccc1)c1nc(cc3ccc([n-]3)c2-c2ccccc2)C=C1.CC(=O)[O-].[Mn+3] | LC-MS/MS | Sprague-Dawley rat, plasma | oral gavage, dose not given, 360 min, individual rat Rat1 | – | plasma concentration | 121 ng/mL
Cn1ncc(-c2nc(N[C@H]3CC[C@H](N)CC3)ncc2Cl)c1CC1CC1 | phase I dose escalation | human patients | dose not given, grade 3-4 TEAE | relative to: patients | febrile neutropenia incidence | 10%
Cn1cc(-c2nc(N[C@@H]3CCCC[C@@H]3N)c(F)c3c2C(=O)NC3)cn1 | any bleeding | patients with relapsed or refractory AML | oral, 140 mg once daily | – | adverse events | 60%
CC[C@H](C)[C@H](NC(=O)[C@H](Cc1ccccc1)NC(=O)[C@H](CCC(=O)O)NC(=O)[C@H](CCCNC(=N)N)NC(=O)[C@H](C)NC(=O)[C@H](C)NC(=O)[C@H](CCC(N)=O)NC(=O)[C@H](CCC(=O)O)NC(=O)[C@H](CCC(=O)O)NC(=O)[C@H](CC(C)C)NC(=O)[C@H](Cc1ccc(O)cc1)NC(=O)[C@H](CO)NC(=O)[C@H](CO)NC(=O)[C@@H](NC(=O)[C@H](CC(=O)O)NC(=O)[C@H](CO)NC(=O)[C@@H](NC(=O)[C@H](Cc1ccccc1)NC(=O)[C@@H](NC(=O)CNC(=O)[C@H](CCC(=O)O)NC(=O)[C@H](C)NC(=O)CCc1cnc[nH]1)[C@@H](C)O)[C@@H](C)O)C(C)C)C(=O)N[C@@H](C)C(=O)N[C@@H](Cc1c[nH]c2ccccc12)C(=O)N[C@@H](CC(C)C)C(=O)N[C@H](C(=O)N[C@@H](CCCNC(=N)N)C(=O)NCC(=O)N[C@@H](CCCNC(=N)N)C(=O)N[C@@H](CCCCNC(=O)COCCOCCNC(=O)COCCOCCNC(=O)CC[C@H](NC(=O)CCCCCCCCCCCCCCCCC(=O)O)C(=O)O)C(=O)NCC(=O)NCC(=O)N[C@@H](CO)C(=O)N[C@@H](CCCCNC(=O)[C@H](CCCCNC(=O)[C@H](CCCCNc1c(NCCCCCN(O)C(=O)CCC(=O)NCCCCCN(O)C(=O)CCC(=O)NCCCCCN(O)C(C)=O)c(=O)c1=O)Nc1c(NCCCCCN(O)C(=O)CCC(=O)NCCCCCN(O)C(=O)CCC(=O)NCCCCCN(O)C(C)=O)c(=O)c1=O)NC(=O)[C@H](CCCCNc1c(NCCCCCN(O)C(=O)CCC(=O)NCCCCCN(O)C(=O)CCC(=O)NCCCCCN(O)C(C)=O)c(=O)c1=O)Nc1c(NCCCCCN(O)C(=O)CCC(=O)NCCCCCN(O)C(=O)CCC(=O)NCCCCCN(O)C(C)=O)c(=O)c1=O)C(=O)O)C(C)C [zirconium-89 labelled] | ex vivo gamma counting | Sprague-Dawley rat, male, bone marrow | intravenous, 1 nmol, 24 h | – | tissue uptake | 2.06 %ID/g and 2.52 %ID/g and 1.91 %ID/g and 2.03 %ID/g and 2.76 %ID/g
CCC[C@H]1CC[C@H](c2ccc(-c3ccc(F)cc3)cc2)CC1 | – | rat, placenta | 1000 ng/mL in perfusate, middle dose, mixture of 21 LCMs | – | placental accumulation | 10.6 ± 15 ng/g
CC(C)(O)c1cc(Nc2cc(Oc3cn(C4CC4)nc3C3CCOCC3)ccn2)ccn1 | Vomiting | patients with advanced cancer, Japanese cohort | oral, dose not given, grade ≥3 | – | treatment-related adverse events | 0%
N#C[C@@]1(n2ccc(N)nc2=O)O[C@H](CO)[C@@H](O)[C@H]1O | – | human liver microsomes | 1 µM, pH 7.4 | – | microsomal stability time | ≥ 2 h
O=S(=O)(Nc1ccccc1)c1ccc(NC(=S)Nc2ccccc2)cc1 | measured: TBIL | male mouse, blood | oral, 20 mg/kg daily, 14 days | – | blood chemistry level | 0.7 mg/dL
CCc1ccc(CC/C=C/c2ccc3c(c2)C(=O)CC3)cc1 | – | Sprague-Dawley rat, female | oral, 120 mg/kg/day, 14 days | – | Albumin | 39 g/L
[O-][S+]1CCc2nc(N3CCC(c4ncc(Cl)cn4)CC3)nc(NC3(CO)CCC3)c21 (stereo not shown) | measured: abdominal distension | healthy male subjects | dose not given, multiple rising dose, total | – | subjects with adverse event | 0%
CN1CCN(S(=O)(=O)c2cc([N+](=O)[O-])ccc2N(CCOS(C)(=O)=O)CCOS(C)(=O)=O)CC1 | – | naive NOD/SCID mice, pooled blood | intraperitoneal, 25 mg/kg, week 4 | – | blood urea nitrogen | 11 mmol/L
CCN1CCN(Cc2ccc(Nc3ncc(F)c(-c4cc(F)c5nc6n(c5c4)[C@H](C)CCC6)n3)nc2)CC1 | – | advanced solid tumour patients | dose not given, Phase Ia monotherapy | – | Hypertriglyceridemia incidence, grade ≥3 | 4.2%
O=C(O)CCCOc1ccc(F)cc1-c1cc(-c2ccccc2C(F)(F)F)n(-c2ccccc2)n1 | – | Crl:CD(SD) rat, male | intravenous, 25 µg/kg, 14 days post-dose | – | albumin fraction of serum protein | 49 ± 1.6%
C[C@]1(CO)Cc2ncn(-c3ccc(C#N)c(Cl)c3)c2C(=O)O1 | – | human | 5 mg single dose | – | subjects with drug-related headache | 0%
CCCSc1ccc2nc(NC(=O)OC)[nH]c2c1 | – | mouse, blood | oral, 50 mg/kg | – | urea level | 2.16 µmol/L
CCCCCCCCCCCCCN(C)C | extrapolated from shorter analogues | – | – | – | pKa | 10
